Experimental data collected from several papers.
Each numbered part is a random draw from the data of one study; scales do not carry over between parts. Several values in a cell are separate wells, animals, samples, runs or records.
Chain of UniProt Q7KZI7 (whole entry, looked up): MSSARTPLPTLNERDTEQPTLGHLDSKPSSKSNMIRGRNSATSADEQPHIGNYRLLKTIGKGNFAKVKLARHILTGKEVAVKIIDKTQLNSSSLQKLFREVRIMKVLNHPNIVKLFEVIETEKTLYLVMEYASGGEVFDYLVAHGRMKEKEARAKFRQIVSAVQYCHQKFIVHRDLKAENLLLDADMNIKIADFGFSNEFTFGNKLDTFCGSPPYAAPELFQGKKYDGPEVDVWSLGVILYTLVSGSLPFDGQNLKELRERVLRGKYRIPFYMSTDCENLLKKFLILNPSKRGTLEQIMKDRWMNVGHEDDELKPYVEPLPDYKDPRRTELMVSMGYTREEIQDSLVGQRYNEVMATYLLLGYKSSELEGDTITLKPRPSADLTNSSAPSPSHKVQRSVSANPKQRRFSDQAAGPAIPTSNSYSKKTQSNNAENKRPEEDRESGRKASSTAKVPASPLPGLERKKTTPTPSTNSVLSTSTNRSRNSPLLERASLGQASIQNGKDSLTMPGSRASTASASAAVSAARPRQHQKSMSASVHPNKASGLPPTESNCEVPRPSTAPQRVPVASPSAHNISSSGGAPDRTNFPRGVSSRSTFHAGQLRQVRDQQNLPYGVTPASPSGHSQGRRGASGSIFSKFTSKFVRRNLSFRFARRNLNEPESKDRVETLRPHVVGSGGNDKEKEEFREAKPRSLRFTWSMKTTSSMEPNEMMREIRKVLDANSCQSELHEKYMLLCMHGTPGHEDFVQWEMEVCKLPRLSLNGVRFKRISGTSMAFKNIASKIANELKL
Chain of UniProt P07949 (whole entry, unmodified, looked up): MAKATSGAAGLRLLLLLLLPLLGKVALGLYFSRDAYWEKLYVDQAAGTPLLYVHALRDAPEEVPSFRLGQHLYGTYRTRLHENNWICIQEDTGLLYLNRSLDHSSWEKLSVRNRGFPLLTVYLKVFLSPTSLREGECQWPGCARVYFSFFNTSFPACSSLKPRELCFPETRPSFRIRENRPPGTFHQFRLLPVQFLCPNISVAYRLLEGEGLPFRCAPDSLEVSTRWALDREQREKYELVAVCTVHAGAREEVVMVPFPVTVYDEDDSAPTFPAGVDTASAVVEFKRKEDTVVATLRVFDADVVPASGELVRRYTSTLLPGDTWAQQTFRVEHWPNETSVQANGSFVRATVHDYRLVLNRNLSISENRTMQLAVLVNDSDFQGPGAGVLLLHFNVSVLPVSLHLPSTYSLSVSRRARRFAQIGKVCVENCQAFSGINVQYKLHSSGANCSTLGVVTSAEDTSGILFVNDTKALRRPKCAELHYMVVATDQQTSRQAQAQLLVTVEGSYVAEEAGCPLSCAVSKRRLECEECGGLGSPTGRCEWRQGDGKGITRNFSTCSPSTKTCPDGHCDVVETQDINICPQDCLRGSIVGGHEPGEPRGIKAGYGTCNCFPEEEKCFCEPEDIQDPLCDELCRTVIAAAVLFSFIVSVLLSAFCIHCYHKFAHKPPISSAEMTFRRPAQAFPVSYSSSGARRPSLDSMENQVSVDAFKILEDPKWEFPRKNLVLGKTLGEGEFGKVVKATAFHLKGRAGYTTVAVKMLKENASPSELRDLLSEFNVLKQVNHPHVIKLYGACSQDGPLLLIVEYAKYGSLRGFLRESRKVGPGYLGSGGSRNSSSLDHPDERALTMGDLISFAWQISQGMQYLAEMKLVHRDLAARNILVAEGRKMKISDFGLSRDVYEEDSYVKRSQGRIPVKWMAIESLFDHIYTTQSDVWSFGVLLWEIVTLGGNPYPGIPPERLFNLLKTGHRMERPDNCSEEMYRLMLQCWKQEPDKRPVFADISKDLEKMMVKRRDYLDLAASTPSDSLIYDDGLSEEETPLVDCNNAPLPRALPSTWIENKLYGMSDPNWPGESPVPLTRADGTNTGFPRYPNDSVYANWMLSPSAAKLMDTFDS
Chain of UniProt P11802 (whole entry, looked up): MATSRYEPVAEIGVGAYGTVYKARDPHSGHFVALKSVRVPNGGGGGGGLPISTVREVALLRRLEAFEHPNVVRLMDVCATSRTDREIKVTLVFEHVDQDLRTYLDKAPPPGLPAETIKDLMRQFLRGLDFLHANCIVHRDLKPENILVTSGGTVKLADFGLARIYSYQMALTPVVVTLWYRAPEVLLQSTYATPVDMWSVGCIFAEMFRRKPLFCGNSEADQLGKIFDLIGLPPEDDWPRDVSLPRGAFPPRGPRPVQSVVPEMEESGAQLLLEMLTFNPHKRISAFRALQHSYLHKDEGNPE
Chain of UniProt Q15759 (whole entry, looked up): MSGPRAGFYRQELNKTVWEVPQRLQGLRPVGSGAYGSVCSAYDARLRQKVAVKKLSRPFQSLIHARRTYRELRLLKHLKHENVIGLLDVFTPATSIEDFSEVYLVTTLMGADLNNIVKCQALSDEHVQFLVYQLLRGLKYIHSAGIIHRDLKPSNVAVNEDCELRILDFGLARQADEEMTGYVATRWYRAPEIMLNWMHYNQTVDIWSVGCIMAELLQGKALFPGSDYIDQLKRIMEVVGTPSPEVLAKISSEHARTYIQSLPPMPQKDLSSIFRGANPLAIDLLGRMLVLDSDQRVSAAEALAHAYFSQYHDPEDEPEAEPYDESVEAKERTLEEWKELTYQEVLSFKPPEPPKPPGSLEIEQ
Chain of UniProt Q8IVW4 (whole entry, looked up): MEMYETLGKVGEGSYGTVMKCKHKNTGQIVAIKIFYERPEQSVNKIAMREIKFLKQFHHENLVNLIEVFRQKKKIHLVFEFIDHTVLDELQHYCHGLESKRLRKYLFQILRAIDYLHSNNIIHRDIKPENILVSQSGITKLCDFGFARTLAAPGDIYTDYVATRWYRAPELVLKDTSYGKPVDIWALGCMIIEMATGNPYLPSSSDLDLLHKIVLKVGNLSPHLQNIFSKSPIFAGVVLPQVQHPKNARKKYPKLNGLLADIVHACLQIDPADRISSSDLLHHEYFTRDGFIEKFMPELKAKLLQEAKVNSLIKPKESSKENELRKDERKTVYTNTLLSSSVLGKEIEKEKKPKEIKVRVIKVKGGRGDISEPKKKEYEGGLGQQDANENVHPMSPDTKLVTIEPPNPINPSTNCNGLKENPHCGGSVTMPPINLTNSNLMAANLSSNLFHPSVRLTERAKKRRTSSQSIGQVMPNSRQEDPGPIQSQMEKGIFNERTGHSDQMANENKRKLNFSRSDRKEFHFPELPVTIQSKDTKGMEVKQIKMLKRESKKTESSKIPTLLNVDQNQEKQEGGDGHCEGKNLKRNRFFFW
Chain of UniProt P31152 (whole entry, looked up): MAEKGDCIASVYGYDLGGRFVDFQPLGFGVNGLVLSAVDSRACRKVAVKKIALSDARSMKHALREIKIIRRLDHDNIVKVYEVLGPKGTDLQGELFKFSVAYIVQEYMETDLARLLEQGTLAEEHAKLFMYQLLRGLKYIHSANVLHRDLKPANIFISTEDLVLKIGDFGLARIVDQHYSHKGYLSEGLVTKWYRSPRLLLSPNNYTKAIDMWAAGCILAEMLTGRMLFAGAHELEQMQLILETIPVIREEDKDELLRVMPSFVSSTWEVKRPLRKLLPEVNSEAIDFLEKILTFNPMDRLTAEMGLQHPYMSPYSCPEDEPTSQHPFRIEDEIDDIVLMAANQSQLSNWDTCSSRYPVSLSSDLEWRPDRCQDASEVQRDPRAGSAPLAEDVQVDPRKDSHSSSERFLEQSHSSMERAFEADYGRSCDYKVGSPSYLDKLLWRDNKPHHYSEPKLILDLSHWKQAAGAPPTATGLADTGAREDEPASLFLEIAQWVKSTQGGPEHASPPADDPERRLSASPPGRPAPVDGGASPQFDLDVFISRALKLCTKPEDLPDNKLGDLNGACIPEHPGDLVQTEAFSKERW
Chain of UniProt P09769 (whole entry, looked up): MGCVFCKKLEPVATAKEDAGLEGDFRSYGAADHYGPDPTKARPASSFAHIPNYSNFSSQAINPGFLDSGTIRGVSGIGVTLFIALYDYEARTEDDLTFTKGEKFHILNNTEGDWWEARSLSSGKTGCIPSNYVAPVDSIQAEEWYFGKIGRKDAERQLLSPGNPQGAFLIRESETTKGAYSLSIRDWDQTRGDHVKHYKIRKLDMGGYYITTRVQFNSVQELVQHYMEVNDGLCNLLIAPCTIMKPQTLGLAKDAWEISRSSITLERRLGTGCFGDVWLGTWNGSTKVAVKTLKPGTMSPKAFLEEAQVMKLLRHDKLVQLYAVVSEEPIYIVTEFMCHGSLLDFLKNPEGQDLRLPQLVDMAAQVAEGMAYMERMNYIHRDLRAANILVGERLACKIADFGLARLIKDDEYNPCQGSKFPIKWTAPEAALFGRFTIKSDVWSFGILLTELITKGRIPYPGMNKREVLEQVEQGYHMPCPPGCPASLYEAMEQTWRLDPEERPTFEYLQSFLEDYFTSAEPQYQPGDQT
Chain of UniProt Q99640 (whole entry, looked up): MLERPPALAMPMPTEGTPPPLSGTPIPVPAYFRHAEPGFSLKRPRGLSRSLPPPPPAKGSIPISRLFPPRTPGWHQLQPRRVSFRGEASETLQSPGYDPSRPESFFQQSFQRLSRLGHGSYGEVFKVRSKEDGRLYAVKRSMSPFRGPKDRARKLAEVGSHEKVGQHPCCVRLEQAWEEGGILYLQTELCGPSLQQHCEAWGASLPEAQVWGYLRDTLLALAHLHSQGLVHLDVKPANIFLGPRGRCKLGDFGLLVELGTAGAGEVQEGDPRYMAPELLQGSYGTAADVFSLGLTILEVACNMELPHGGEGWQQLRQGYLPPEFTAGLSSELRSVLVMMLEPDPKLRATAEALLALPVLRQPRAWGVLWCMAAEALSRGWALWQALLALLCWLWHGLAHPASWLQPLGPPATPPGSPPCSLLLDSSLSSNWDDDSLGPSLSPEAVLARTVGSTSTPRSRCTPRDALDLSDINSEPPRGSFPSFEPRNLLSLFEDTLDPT

Block 1 — cell line: mouse MPNST tumor cells; technique: high-content nuclear imaging; item: cell number; tested at: 10 µM; time: 12 h; notes: mean of 2 replicates; reference: plate mean; reading: higher = more cells
Cc1cc2c(cc1N1C(=O)c3cccc4c(CCCO)ccc(c34)C1=O)n(C)c(=O)n2C gave a nuclei count of -3.66 z-score and -3.87 z-score.
CCOC(=O)[C@@](C)(N)Cc1ccc(O)c(O)c1 gave a nuclei count of 0.844 z-score.
With C[C@@H](CN1CC(=O)NC(=O)C1)N1CC(=O)NC(=O)C1 the nuclei count was 0.000591 z-score.
CC(=O)O[C@]1(C(C)=O)CC[C@H]2[C@@H]3C=C(C)C4=CC(=O)CC[C@]4(C)[C@H]3CC[C@@]21C gave a nuclei count of 5.23 z-score and 2.66 z-score.
OCC1OC(n2cnc3c(NC4CCCC4)nc(Cl)nc32)C(O)C1O (centres unmarked) has a nuclei count of 0.119 z-score.
For N[C@@H](C(=O)N[C@@H]1C(=O)N2C(C(=O)O)=C(Cl)CC[C@H]12)c1ccccc1, the nuclei count was 0.472 z-score.
With CC(NC(=O)Cc1cc(F)cc(F)c1)C(=O)NC1C(=O)N(C)c2ccccc2-c2ccccc21 (centres unmarked) the nuclei count was -0.87 z-score.
CNC(=O)COC(=O)NCCC1CCN(c2cccc(C)n2)CC1 has a nuclei count of 1.43 z-score.
COc1cc2c(cc1OC)C(=O)C(CC1CCN(Cc3ccccc3)CC1)C2 (centres unmarked) has a nuclei count of 0.897 z-score.

Block 2 — effect on: cell-free assay; technique: competition with immobilised ligand; tested at: 0.1 µM
SMILES: Cn1cc(Cl)c2c(Oc3c(F)cc(Nc4cc(Cl)nc(N)n4)cc3F)ccnc21
For Serine/threonine-protein kinase tousled-like 2 (TLK2, Homo sapiens, UniProt Q86UE8): remaining binding read 100%.
For Tyrosine-protein kinase ABL1, phosphorylated (ABL1, Homo sapiens, UniProt P00519, Y253F): remaining binding read 95%.
LIM domain kinase 1 (LIMK1, Homo sapiens, UniProt P53667) — remaining binding: 90%.
Serine/threonine-protein kinase MARK2 (MARK2, Homo sapiens, UniProt Q7KZI7) — remaining binding: 100%.
The remaining binding was 100% (Dual specificity protein kinase TTK (TTK, Homo sapiens, UniProt P33981)).
For Proto-oncogene tyrosine-protein kinase receptor Ret (RET, Homo sapiens, UniProt P07949, M918T): remaining binding read 92%.
For Mitogen-activated protein kinase 4 (MAPK4, Homo sapiens, UniProt P31152): remaining binding read 100%.
It gave 100% for remaining binding (Serine/threonine-protein kinase RIO2 (RIOK2, Homo sapiens, UniProt Q9BVS4)).
For Membrane-associated tyrosine- and threonine-specific cdc2-inhibitory kinase (PKMYT1, Homo sapiens, UniProt Q99640): remaining binding read 100%.
Ribosomal protein S6 kinase alpha-1, C-terminal kinase domain (RPS6KA1, Homo sapiens, UniProt Q15418) — remaining binding: 100%.
For 1-phosphatidylinositol 3-phosphate 5-kinase (PIKFYVE, Homo sapiens, UniProt Q9Y2I7): remaining binding read 91%.
For Cyclin-dependent kinase-like 3 (CDKL3, Homo sapiens, UniProt Q8IVW4): remaining binding read 96%.
The remaining binding was 100% (Tyrosine-protein kinase Fgr (FGR, Homo sapiens, UniProt P09769)).
The remaining binding was 83% (Serine/threonine-protein kinase PLK4 (PLK4, Homo sapiens, UniProt O00444)).
Mitogen-activated protein kinase 11 (MAPK11, Homo sapiens, UniProt Q15759) — remaining binding: 100%.
For Cyclin-dependent kinase 4, with cyclin D3 (CDK4, Homo sapiens, UniProt P11802): remaining binding read 100%.
For Tyrosine-protein kinase ABL1, phosphorylated (ABL1, Homo sapiens, UniProt P00519): remaining binding read 97%.
For Protein kinase C eta type (PRKCH, Homo sapiens, UniProt P24723): remaining binding read 98%.
The remaining binding was 79% (Receptor-type tyrosine-protein kinase FLT3 (FLT3, Homo sapiens, UniProt P36888, D835V/ITD)).
The remaining binding was 100% (Atypical kinase COQ8A, mitochondrial (COQ8A, Homo sapiens, UniProt Q8NI60)).
It gave 98% for remaining binding (Epidermal growth factor receptor (EGFR, Homo sapiens, UniProt P00533, G719S)).
The remaining binding was 100% (Serine/threonine-protein kinase TBK1 (TBK1, Homo sapiens, UniProt Q9UHD2)).

Block 3 — tested at: 1 µM
Compound: C=CC(=O)N1CCC([C@@H]2CCNc3c(C(N)=O)c(-c4ccc(Oc5ccccc5)cc4)nn32)CC1
It gave 40% for inhibition (Epidermal growth factor receptor (EGFR, Homo sapiens, UniProt P00533, L858R/T790M); cell-free assay).
The inhibition was 22% (Serine/threonine-protein kinase 36 (STK36, Homo sapiens, UniProt Q9NRP7); enzyme activity, inhibitor).
Peripheral plasma membrane protein CASK (CASK, Homo sapiens, UniProt O14936); cell-free assay — inhibition: 19%.
The inhibition was 22% (Serine/threonine-protein kinase MRCK gamma (CDC42BPG, Homo sapiens, UniProt Q6DT37); inhibitor).
STE20/SPS1-related proline-alanine-rich protein kinase (STK39, Homo sapiens, UniProt Q9UEW8); enzyme activity, inhibitor — inhibition: 15%.

Block 4 — effect on: enzyme activity; action: inhibitor; tested at: 0.5 µM; reference: control
Target: MAP kinase-activated protein kinase 5 (MAPKAPK5, Homo sapiens, UniProt Q8IW41)
Target sequence (Q8IW41 1-473): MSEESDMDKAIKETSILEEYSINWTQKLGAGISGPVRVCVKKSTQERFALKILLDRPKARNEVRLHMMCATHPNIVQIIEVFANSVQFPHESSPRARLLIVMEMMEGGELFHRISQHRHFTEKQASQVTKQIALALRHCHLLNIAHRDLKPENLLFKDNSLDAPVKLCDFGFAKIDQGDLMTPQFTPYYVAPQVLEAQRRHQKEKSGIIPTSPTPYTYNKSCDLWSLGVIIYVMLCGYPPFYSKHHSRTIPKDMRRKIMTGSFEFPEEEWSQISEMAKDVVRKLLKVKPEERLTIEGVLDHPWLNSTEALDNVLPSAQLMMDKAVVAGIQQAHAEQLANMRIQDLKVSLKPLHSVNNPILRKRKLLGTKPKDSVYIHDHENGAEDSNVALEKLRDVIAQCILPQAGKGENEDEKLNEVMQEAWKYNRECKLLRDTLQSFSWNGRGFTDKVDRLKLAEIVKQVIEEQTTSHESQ
The remaining activity of Clc1ccc(Nc2nnc(Cc3ccncc3)c3ccccc23)cc1 is reported as 97.8%.
N#C/C(=C(/N)SC1C=CC=CC1)c1cccc(C(O)c2ccncc2)c1 (centres unmarked) gave a remaining activity of 84.9%.
With O=C1NC(=O)/C(=C/c2ccc3c(c2)OC(F)(F)O3)S1 the remaining activity was 98.2%.
For CCN(CC)CCCCN1c2ccccc2Oc2ccc(Cl)cc21, the remaining activity was 95.9%.
COc1cc2c(Nc3ccc(Br)cc3F)ncnc2cc1OCC1CCN(C)CC1 gave a remaining activity of 94.7%.
With Nc1nc(Nc2ccc(S(N)(=O)=O)cc2)nn1C(=S)Nc1c(F)cccc1F the remaining activity was 52.2%.
The remaining activity of COc1cc2c(N3CCN(C(=O)Nc4ccc(OC(C)C)cc4)CC3)ncnc2cc1OCCCN1CCCCC1 is reported as 91.9%.
With CC(C)N(CCC(=O)c1ccc2ccccc2c1)Cc1ccccc1 the remaining activity was 96.6%.

Block 5 — species: human; matrix: microsomes or S9; tested at: 2 µM; time: 0.5 h
For Cc1ccc(CNC(=O)N2Cc3c(sc4c3CCCC4)-n3cccc3C2C(C)C)cc1 (centres unmarked), the remaining compound was 1.3%.
With CCCC(=O)CSc1[nH]c(=O)cc(C)c1C#N the remaining compound was 93.3%.
For CC(=O)Nc1cccc(C(=O)Nc2ccccc2)c1, the remaining compound was 77.2%.
The remaining compound of CCn1cc(CN(C/C=C/c2ccco2)CC(C)C)cn1 is reported as 1.45%.
CC(C)=CCc1c2ccoc2c(O)c2oc(=O)ccc12 has a remaining compound of 58.4%.

Other studies, line by line
For CC(C)n1cnc(-c2ccc(F)cc2)c1-c1ncc(C(=O)Nc2ccc(N3CCN(C)CC3)cc2)[nH]1, “patients with supraventricular extrasystoles” read 0% (human, idiopathic pulmonary fibrosis; 60 mg once daily, trial, treatment-emergent).

Some of these lines once more (block 2):
Ribosomal protein S6 kinase alpha-1, C-terminal kinase domain (RPS6KA1, Homo sapiens, UniProt Q15418) — remaining binding: 100%.
The remaining binding was 100% (Dual specificity protein kinase TTK (TTK, Homo sapiens, UniProt P33981)).
For Membrane-associated tyrosine- and threonine-specific cdc2-inhibitory kinase (PKMYT1, Homo sapiens, UniProt Q99640): remaining binding read 100%.
For Proto-oncogene tyrosine-protein kinase receptor Ret (RET, Homo sapiens, UniProt P07949, M918T): remaining binding read 92%.
For Mitogen-activated protein kinase 4 (MAPK4, Homo sapiens, UniProt P31152): remaining binding read 100%.
